Measured values gathered from unrelated publications.
Numbered parts are unrelated; each lists some results of a single study. Values joined by “and” are separate records of one study, mostly repeats; a detail may differ.
Chain of UniProt P11802 (whole entry, looked up): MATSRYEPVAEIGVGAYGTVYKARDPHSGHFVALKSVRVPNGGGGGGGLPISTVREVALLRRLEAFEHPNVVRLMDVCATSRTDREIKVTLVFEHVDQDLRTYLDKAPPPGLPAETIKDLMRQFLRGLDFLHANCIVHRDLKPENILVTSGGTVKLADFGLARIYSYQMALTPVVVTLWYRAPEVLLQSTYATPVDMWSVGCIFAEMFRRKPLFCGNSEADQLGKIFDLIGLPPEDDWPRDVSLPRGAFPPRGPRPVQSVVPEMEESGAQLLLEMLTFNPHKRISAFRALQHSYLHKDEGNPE

Block 1 — mode: degrader; cells: HEK293
SMILES: O=C1CCC(N2Cc3cc(C4CCN(Cc5ccccc5)CC4)ccc3C2=O)C(=O)N1 (stereo not shown)
Target: CRBN/Zinc finger protein Helios (Homo sapiens, UniProt Q96SW2+Q9UKS7)
Chain of UniProt Q96SW2 (whole entry, looked up): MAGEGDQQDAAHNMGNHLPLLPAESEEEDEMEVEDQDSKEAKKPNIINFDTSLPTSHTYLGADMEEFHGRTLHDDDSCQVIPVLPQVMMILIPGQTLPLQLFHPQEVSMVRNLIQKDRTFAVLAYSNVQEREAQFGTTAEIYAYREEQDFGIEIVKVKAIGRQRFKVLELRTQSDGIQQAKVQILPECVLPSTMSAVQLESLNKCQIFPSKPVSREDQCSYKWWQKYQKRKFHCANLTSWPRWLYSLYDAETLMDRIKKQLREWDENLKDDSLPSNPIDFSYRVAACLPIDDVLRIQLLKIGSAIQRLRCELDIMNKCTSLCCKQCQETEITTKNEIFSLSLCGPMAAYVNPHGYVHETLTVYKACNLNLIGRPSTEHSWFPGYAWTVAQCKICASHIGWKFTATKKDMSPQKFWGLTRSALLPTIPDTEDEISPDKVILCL
Chain of UniProt Q9UKS7 (whole entry, looked up): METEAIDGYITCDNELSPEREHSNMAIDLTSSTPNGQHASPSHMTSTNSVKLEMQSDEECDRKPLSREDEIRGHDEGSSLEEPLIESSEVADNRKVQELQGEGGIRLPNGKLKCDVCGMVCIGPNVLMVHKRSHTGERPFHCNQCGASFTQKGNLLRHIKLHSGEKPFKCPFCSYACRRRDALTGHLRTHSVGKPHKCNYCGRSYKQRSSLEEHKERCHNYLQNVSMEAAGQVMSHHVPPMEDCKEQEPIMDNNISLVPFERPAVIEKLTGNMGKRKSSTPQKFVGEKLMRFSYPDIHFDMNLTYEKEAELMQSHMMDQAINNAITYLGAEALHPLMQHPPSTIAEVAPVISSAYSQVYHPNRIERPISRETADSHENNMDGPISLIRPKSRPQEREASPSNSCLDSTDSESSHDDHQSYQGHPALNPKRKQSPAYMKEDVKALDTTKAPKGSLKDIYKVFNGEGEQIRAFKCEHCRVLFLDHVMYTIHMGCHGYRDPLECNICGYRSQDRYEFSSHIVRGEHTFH
assay	conditions	protein remaining [%]
HiBiT	0.1524 nM, 6 h	95.1
HiBiT	0.4572 nM, 6 h	81.8
HiBiT	12.35 nM	40.9
HiBiT kinetics	111.1 nM, 3 h	29.7
HiBiT	0.01694 nM, 6 h	92.6
HiBiT kinetics	12.35 nM, 0.5 h	88.3
HiBiT	1.372 nM	70
HiBiT kinetics	1.372 nM, 6 h	55.4
HiBiT	37.04 nM	42.9
HiBiT kinetics	0.4572 nM, 6 h	80.8
HiBiT kinetics	37.04 nM, 0.5 h	91.1
HiBiT kinetics	0.4572 nM, 0.5 h	100
HiBiT kinetics	111.1 nM, 6 h	22.4
HiBiT kinetics	4.115 nM, 0.5 h	96.5
HiBiT	0.4572 nM	81.8
HiBiT	1.372 nM, 6 h	70
HiBiT	37.04 nM, 6 h	42.9

Block 2 — mode: inhibitor; concentration: concentration not given; added: with ssDNA
Target: DNA polymerase theta, helicase domain (POLQ, Homo sapiens, UniProt O75417)
Chain of UniProt O75417 (whole entry, looked up): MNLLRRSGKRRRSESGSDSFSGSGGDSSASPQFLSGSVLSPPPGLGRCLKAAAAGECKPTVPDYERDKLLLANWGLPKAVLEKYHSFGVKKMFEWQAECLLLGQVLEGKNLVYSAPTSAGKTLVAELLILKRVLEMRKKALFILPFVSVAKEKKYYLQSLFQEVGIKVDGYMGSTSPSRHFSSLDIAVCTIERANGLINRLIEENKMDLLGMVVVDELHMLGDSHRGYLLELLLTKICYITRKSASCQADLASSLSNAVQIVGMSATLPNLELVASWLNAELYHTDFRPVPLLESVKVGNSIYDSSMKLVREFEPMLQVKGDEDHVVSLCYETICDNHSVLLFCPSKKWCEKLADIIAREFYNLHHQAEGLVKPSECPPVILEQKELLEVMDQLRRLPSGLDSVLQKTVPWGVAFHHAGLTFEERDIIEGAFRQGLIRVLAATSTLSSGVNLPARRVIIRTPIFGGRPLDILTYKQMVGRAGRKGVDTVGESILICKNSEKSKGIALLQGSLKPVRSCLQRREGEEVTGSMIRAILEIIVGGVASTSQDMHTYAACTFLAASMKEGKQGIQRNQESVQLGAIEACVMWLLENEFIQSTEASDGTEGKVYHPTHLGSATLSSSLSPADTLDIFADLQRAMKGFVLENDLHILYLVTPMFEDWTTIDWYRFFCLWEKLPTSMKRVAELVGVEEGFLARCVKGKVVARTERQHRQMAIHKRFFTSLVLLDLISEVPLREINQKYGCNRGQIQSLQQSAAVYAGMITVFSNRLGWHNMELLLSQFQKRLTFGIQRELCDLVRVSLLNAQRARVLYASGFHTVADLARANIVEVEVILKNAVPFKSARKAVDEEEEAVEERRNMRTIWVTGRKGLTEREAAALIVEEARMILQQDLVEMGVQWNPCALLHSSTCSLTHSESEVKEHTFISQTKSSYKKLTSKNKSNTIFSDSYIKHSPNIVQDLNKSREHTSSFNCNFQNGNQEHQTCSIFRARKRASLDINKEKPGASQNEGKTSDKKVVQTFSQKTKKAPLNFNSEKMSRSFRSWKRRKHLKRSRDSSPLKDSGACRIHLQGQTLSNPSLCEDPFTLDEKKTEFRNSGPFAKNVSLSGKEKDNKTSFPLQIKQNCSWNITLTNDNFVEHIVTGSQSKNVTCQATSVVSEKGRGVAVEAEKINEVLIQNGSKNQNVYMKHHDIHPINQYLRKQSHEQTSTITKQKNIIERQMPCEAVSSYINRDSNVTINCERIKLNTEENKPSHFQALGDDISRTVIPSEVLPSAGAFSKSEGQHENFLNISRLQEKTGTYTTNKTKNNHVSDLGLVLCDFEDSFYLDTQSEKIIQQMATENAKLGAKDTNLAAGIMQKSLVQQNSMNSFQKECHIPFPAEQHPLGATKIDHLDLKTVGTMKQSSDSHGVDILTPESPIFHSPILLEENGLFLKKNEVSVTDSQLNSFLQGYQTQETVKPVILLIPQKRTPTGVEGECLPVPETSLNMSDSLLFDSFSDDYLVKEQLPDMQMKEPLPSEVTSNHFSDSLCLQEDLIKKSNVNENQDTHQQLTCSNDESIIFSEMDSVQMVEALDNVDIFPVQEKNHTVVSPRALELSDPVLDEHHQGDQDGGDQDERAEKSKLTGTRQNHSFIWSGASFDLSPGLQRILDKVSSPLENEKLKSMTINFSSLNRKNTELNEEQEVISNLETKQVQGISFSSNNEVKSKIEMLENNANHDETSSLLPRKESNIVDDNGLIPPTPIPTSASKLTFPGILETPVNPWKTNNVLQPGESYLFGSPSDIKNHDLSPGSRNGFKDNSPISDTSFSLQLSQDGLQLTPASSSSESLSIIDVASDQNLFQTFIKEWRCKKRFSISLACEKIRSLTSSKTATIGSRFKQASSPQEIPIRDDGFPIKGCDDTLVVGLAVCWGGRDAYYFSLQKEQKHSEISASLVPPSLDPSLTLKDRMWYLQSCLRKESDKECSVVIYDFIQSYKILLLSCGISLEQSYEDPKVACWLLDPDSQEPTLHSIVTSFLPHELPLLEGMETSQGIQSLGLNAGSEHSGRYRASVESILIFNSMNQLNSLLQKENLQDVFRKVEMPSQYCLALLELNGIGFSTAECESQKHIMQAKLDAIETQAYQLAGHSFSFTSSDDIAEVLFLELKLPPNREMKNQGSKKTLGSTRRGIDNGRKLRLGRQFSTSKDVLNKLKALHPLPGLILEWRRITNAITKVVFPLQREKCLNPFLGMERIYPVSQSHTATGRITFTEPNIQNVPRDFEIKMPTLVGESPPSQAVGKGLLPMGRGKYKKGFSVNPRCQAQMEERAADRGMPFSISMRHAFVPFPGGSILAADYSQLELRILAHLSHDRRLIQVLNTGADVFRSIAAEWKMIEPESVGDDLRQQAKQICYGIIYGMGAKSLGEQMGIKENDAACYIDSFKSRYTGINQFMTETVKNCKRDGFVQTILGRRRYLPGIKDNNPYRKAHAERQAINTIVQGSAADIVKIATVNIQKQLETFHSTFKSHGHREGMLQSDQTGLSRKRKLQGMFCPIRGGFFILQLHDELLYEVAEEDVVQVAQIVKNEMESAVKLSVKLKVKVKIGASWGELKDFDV
Compound	remaining activity
Cc1ccc(-c2n[nH]c3c2C(c2ccccc2Cl)N(c2ccc(C(=O)O)cc2)C3=O)cc1 (stereo not shown)	71.9% and 80%
Cc1ccc(C(=O)Nc2ccc(S(=O)(=O)[O-])c3cc(S(=O)(=O)[O-])cc(S(=O)(=O)[O-])c23)cc1NC(=O)c1cccc(NC(=O)Nc2cccc(C(=O)Nc3cc(C(=O)Nc4ccc(S(=O)(=O)[O-])c5cc(S(=O)(=O)[O-])cc(S(=O)(=O)[O-])c45)ccc3C)c2)c1.[Na+].[Na+].[Na+].[Na+].[Na+].[Na+]	2.57% and 2.71%
CCCCCCCCCCCCCCCC(=O)OC[C@H](O)[C@H]1OC(=O)C(O)=C1O	19.3% and 26.8%
COc1ccc2c(c1)c(CC(=O)O)c(C)n2Cc1ccc(Cl)cc1	69.1% and 69.3%
Cc1ccc(C(=O)c2cc(O)c(O)c([N+](=O)[O-])c2)cc1	49.9% and 51.8%
Cc1noc(C)c1S(=O)(=O)Nc1ccc(C(=O)Nc2ccc(Br)cc2)cc1	56.5% and 56.2%
O=C1c2c(O)ccc(O)c2C(=O)c2c(NCCNCCO)ccc(NCCNCCO)c21	22.7% and 22.2%
COc1cc2c(cc1Cc1cccc(Cl)c1F)c(=O)c(C(=O)O)cn2[C@H](CO)C(C)C	81.2% and 81.7%
O=C(O)C1=CC(=C(c2ccc(O)c(C(=O)O)c2)c2ccc(O)c(C(=O)O)c2)C=CC1=O	4.82% and 2.62%
Cc1ccccc1C(=O)Nc1sc2c(c1C(=O)O)CCC(C(C)(C)C)C2 (stereo not shown)	65.8% and 65.7%
CCCCCCCCCCC/C=C\C(C)(C)/C=C\CCCC(=O)O	95.8% and 99.9%
COc1ccc(C(=O)Nc2noc3ccccc23)cc1	64% and 62.2%

Block 3 — effect on: enzyme activity; mode: inhibitor; concentration: 0.5 µM; reference: control
Target: Mitogen-activated protein kinase kinase kinase 9 (MAP3K9, Homo sapiens, UniProt P80192)
Chain of UniProt P80192 (whole entry, looked up): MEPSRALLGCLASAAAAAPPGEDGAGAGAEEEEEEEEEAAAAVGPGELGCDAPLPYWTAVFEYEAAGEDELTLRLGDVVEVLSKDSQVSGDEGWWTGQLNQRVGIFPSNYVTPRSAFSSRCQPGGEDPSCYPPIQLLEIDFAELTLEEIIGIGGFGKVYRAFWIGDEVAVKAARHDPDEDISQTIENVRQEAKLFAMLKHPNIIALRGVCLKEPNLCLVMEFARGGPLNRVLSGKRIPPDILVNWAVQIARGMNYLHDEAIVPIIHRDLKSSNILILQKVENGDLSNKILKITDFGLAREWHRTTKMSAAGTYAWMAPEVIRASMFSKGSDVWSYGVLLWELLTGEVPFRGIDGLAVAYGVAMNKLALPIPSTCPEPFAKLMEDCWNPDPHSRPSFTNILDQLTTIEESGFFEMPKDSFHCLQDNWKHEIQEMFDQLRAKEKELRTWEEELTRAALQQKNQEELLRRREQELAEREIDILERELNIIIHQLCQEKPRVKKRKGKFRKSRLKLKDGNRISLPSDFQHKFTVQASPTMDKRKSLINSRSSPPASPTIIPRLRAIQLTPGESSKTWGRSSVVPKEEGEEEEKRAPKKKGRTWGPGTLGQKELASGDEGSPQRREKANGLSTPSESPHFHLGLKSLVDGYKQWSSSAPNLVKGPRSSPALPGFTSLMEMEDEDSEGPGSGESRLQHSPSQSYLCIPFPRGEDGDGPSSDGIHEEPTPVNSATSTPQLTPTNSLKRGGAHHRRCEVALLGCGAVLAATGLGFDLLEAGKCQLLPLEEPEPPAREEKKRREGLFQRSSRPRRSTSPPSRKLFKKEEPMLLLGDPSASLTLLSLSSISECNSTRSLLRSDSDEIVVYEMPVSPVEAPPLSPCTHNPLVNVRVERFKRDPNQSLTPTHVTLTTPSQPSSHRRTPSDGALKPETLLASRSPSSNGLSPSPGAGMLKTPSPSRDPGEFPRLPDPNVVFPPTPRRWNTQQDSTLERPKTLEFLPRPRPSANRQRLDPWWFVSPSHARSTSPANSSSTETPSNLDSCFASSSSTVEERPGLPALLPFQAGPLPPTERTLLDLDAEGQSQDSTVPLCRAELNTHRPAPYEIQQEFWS
SMILES	remaining activity [%]
Nc1nc(Nc2ccc(S(N)(=O)=O)cc2)nn1C(=O)c1c(F)cccc1F	25.6
CC(C)(C)n1nc(Cc2cccc3ccccc23)c2c(N)ncnc21	103
CCc1[nH]c(-c2ccc(OC)cc2)nc1-c1ccncc1	88.1
COc1cc(Nc2c(C#N)cnc3cc(OCCCN4CCN(C)CC4)c(OC)cc23)c(Cl)cc1Cl	16.5
COc1ccc(S(=O)(=O)N(CCO)c2ccccc2CN(C)CC=Cc2ccc(Cl)cc2)cc1	102
Nc1ncnc2c1cnn2-c1ccccc1	106
O=C1NC(=O)C(c2c[nH]c3ccccc23)=C1c1c[nH]c2ccccc12	55.4
Cc1cc(Nc2nc(-c3ccccc3)nc3ccccc23)n[nH]1	14.8
CC#CC(=O)Nc1cc2c(Nc3ccc(F)c(Cl)c3)ncnc2cn1	95.8
Oc1ccc(Nc2nc(-c3ccc(Cl)cc3)cs2)cc1	80.9
CC(=O)c1ccc(N2CCOCC2)cc1O	112
Fc1ccc(-c2nc3n(c2-c2ccncc2)CCS3)cc1	83.6
NC(=O)c1ccc(N(C(N)=O)c2c(F)cccc2F)nc1-c1ccc(F)cc1F	112
Nc1nccc(-c2c(-c3ccc(F)cc3)ncn2C2CCNCC2)n1	94.5
CCCC(=O)Oc1ccc2[nH]c(C(=O)c3cc4ccccc4[nH]3)cc2c1	97.7
Cc1cncc2cccc(S(=O)(=O)N3CCCN(C(=O)CN)C[C@@H]3C)c12	94.4
Cc1ccc(NC2=CC(=O)c3sc(C)nc3C2=O)cc1	86.7
CSc1nc(-c2ccnc(N[C@@H](C)c3ccccc3)c2)c(-c2ccc(F)cc2)[nH]1 (racemic)	101
N#CC(=C(N)Sc1ccc(N)cc1)c1ccccc1C(F)(F)F	85.9
O=S(=O)(NCCNC/C=C/c1ccc(Br)cc1)c1cccc2cnccc12	99.6
O=C1Cc2c([nH]c3ccc([N+](=O)[O-])cc23)-c2ccccc2N1	10.5
CC[n+]1c(/C=C/N(C)c2ccccc2)n(-c2ccccc2)c2ccc(-c3nc4ccccc4s3)cc21	98.3

Block 4 — effect on: cell-free assay; technique: competition with immobilised ligand; concentration: 1 µM
Compound: Nc1cnc(N2CCc3cc(S(=O)(=O)Nc4c(F)cc(Cl)cc4F)cc(N4CCCC4=O)c32)nc1
target	remaining binding
MINK1 (Homo sapiens, UniProt Q8N4C8)	100%
MARK2 (Homo sapiens, UniProt Q7KZI7)	74%
MTOR (Homo sapiens, UniProt P42345)	100%
LCK (Homo sapiens, UniProt P06239)	100%
PIK3CA (Homo sapiens, UniProt P42336, C420R)	84%
PAK3 (Homo sapiens, UniProt O75914)	100%
AKT3 (Homo sapiens, UniProt Q9Y243)	94%
STK26 (Homo sapiens, UniProt Q9P289)	83%
PRKCH (Homo sapiens, UniProt P24723)	80%
RPS6KB1 (Homo sapiens, UniProt P23443)	83%
Tyrosine-protein kinase ABL1, non-phosphorylated (ABL1, Homo sapiens, UniProt P00519, Q252H)	100%
Cyclin-dependent kinase 4, with cyclin D1 (CDK4, Homo sapiens, UniProt P11802)	97%
PAK6 (Homo sapiens, UniProt Q9NQU5)	100%
Ribosomal protein S6 kinase alpha-1, C-terminal kinase domain (RPS6KA1, Homo sapiens, UniProt Q15418)	100%
CSK (Homo sapiens, UniProt P41240)	99%
Tyrosine-protein kinase JAK2, JH1 (JAK2, Homo sapiens, UniProt O60674)	100%
TIE1 (Homo sapiens, UniProt P35590)	100%
PHKG1 (Homo sapiens, UniProt Q16816)	71%
HUNK (Homo sapiens, UniProt P57058)	99%

Some of these lines once more (block 1):
assay	conditions	protein remaining [%]
HiBiT	37.04 nM	42.9
HiBiT kinetics	0.4572 nM, 6 h	80.8
HiBiT kinetics	37.04 nM, 0.5 h	91.1
HiBiT kinetics	0.4572 nM, 0.5 h	100
HiBiT kinetics	111.1 nM, 6 h	22.4
HiBiT kinetics	4.115 nM, 0.5 h	96.5
HiBiT	0.4572 nM	81.8
HiBiT	1.372 nM, 6 h	70
HiBiT	37.04 nM, 6 h	42.9
